# Results gathered from unrelated publications.
# ± marks the error that the study gave.
SMILES,test,system,setting,scale,quantity,value
O=C(O)c1ccc(-c2nc(-c3ccccc3Cl)c3sccn23)cc1,"ELISA, item: thrombopoietin","mouse, post-5-FU, plasma","dose not given, day 10 post-5-FU",baseline: PBS/PEG control,plasma TPO level,1.4 fold
CC(C)C[C@@H]1NC(=O)[C@@H](Cc2c[nH]c3ccccc23)NC(=O)[C@H](CCCNC(=N)N)NC(=O)[C@@H](CCC(=O)O)NC(=O)[C@H](CCC(N)=O)NC(=O)[C@@H](CCC(=O)O)NC(=O)[C@H](CCCNC(=N)N)NC(=O)[C@@H](Cc2c[nH]c3ccccc23)NC1=O,"Luminex, item: MCP-1 CCL2","LDLr-/- mice, Western diet, liver","dose not given, 4 weeks",,cytokine level,470 ± 150 pg/g tissue
CC(C)[C@@H]1NC(=O)[C@@H]2CCCN2C(=O)[C@@H](C(C)C)NC(=O)[C@H]2CCCN2C(=O)[C@H](C(C)C)NC(=O)[C@@H]2CCCN2C(=O)[C@@H](C(C)C)NC(=O)[C@H]2CCCN2C(=O)[C@H](C(C)C)NC(=O)[C@@H]2CCCN2C(=O)[C@@H](C(C)C)NC(=O)[C@H]2CCCN2C1=O,,sheep lipid bilayer,"10 µM, pH 7.4, 23 °C, with: 10 mM K+ vs Cs chloride",,bi-ionic potential,-5 mV
Cc1ccc(S(=O)(=O)N2CC2C(=O)N(C)C)cc1 (centres unmarked),,"mouse, Lewis lung carcinoma","intraperitoneal, 170 mg/kg, 16 doses, day 14",,tumour volume,931 mm3
COc1ccccc1-c1n[nH]c2nc(NC3CCN(C(=O)Cc4ccc(F)cc4F)CC3)ncc12,"bead binding, competition bead pull-down, item: LINJ.36.2790",Leishmania donovani extract,10 µM,baseline: vehicle,relative abundance,0.89
CCN(Cc1ccccc1)C(=O)CCc1nc(CN2CCN(C(=O)Cc3ccc(OC)c(OC)c3)CC2)no1,current clamp,"DRG neurons, naive rat",1 µM,,resting membrane potential,-58.1 ± 1.57 mV
CCCCCCCCCCCC1CC(=O)NC(CC(N)=O)C(=O)NC(Cc2ccc(O)cc2)C(=O)NC(CC(N)=O)C(=O)NC(CCC(N)=O)C(=O)N2CCCC2C(=O)NC(CC(N)=O)C(=O)NC(CO)C(=O)N1 (centres unmarked),calcein leakage,DOPC/DOPG/CHOL liposomes,"concentration not given, with: 40 mM CaCl2",,fusion time constant,79 ± 6 min
COc1ccccc1-c1n[nH]c2nc(N[C@H]3CC[C@H](NS(=O)(=O)CC(C)C)CC3)ncc12,"bead binding, competition bead pull-down, item: LINJ.36.2130",Leishmania donovani extract,10 µM,baseline: vehicle,relative abundance,1.14
